{"data": "Assay results pooled from the literature", "TDP1": "Tyrosyl-DNA phosphodiesterase 1 (TDP1, Homo sapiens, UniProt Q9NUW8)", "note": "Protocols differ between the studies behind these lines. “And” joins repeats or separate records; there may be more than shown. ± marks the error that the study gave.", "UniProt Q9NUW8, sequence (whole entry, looked up)": "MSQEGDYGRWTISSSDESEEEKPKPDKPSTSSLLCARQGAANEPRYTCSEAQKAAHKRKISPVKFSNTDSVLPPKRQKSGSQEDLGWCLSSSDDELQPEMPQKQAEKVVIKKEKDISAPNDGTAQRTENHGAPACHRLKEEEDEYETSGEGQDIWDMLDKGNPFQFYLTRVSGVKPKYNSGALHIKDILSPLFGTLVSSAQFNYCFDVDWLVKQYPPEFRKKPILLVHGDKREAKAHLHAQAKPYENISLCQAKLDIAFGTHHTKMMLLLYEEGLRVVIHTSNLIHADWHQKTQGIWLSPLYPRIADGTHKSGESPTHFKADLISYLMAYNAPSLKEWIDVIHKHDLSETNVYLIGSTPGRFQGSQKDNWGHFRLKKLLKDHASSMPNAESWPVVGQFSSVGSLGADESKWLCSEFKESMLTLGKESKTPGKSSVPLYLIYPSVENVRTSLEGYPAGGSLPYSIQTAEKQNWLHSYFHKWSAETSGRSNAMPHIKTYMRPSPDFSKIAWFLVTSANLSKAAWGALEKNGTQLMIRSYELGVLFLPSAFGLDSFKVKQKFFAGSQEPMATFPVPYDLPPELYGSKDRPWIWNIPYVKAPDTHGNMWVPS"}
{"SMILES": "COc1cnc2cccc(N3CCc4c(cc(Cn5ccnc5)cc4-c4cn(C)nc4C(F)(F)F)C3=O)c2c1", "system": "BALB/c nude mice, MV4-11 xenograft", "conditions": "intraperitoneal, 75 mg/kg, day 10", "measurement": "tumour volume", "result": "150 mm3 and 166 mm3 and 125 mm3 and 157 mm3 and 152 mm3"}
{"SMILES": "CC(=O)N1N=C(Nc2ccc(-c3ccc(NC4=NN(C(C)=O)C(c5ccc(N(C)C)cc5)C4)cc3)cc2)CC1c1ccc(N(C)C)cc1 (stereo not drawn)", "assay": "carrageenan paw oedema", "system": "albino rat", "conditions": "oral, 50 mg/kg, 3 h", "measurement": "inhibition", "result": "25.4%"}
{"SMILES": "COCC1CN(C2CCN(c3cc(OC)c(Nc4ncc(Br)c(Nc5ccc6c(c5P(C)(C)=O)OCCO6)n4)cc3C)CC2)C1", "assay": "RECIST 1.1", "system": "advanced EGFR-mutant NSCLC patients", "conditions": "90 mg once daily", "measurement": "objective response rate", "result": "0%"}
{"SMILES": "CC(C)(C)NCC(SS(=O)(=O)O)c1ccccc1 (stereo not drawn)", "system": "mouse infected with Schistosoma mansoni", "conditions": "600 mg/kg, day 7 post-infection dosing once, perfusion day 52 post-infection", "measurement": "spleen weight", "result": "0.97 g and 0.48 g and 0.96 g and 0.53 g"}
{"SMILES": "COC1CN([C@H]2CC[C@H]([C@@]3(C)Oc4c(Cl)cc(C(=O)NCc5c(SC)cc(C)[nH]c5=O)c(C)c4O3)CC2)C1", "assay": "RNA-seq, item: SORBS1 mouse homolog", "system": "mouse, HT-1376 xenograft, whole blood", "conditions": "dose not given", "scale": "baseline: vehicle", "measurement": "log2 fold change", "result": 0.459}
{"SMILES": "Fc1cncc(-c2ccc3[nH]c4ncnc(N[C@H]5CC[C@H](N6CCOCC6)CC5)c4c3c2)c1", "assay": "item: TNFα", "system": "C57BL/6 mice, serum", "conditions": "oral, 100 mg/kg, dosed 2 h before LPS, with: LPS", "scale": "baseline: vehicle", "measurement": "inhibition", "result": "76.7%"}
{"SMILES": "CC(C)C[C@H](NC(=O)CNC(=O)[C@H](CCC(N)=O)NC(=O)[C@H](CC(C)C)NC(=O)[C@H](CC(C)C)NC(=O)[C@H](CCCNC(=N)N)NC(=O)[C@H](CCC(N)=O)NC(=O)[C@H](CC(C)C)NC(=O)[C@H](CCCNC(=N)N)NC(=O)[C@H](C)NC(=O)CNC(=O)[C@H](CCC(=O)O)NC(=O)[C@H](CCCNC(=N)N)NC(=O)[C@H](CC(C)C)NC(=O)[C@H](CCCNC(=N)N)NC(=O)[C@H](CO)NC(=O)[C@H](CC(C)C)NC(=O)[C@H](CCC(=O)O)NC(=O)[C@H](CO)NC(=O)[C@@H](NC(=O)[C@H](Cc1ccccc1)NC(=O)[C@@H](NC(=O)CNC(=O)[C@H](CC(=O)O)NC(=O)C(C)(C)NC(=O)[C@@H](N)Cc1c[nH]cn1)[C@@H](C)O)[C@@H](C)O)C(=O)N[C@@H](CC(C)C)C(=O)N[C@@H](CCC(N)=O)C(=O)NCC(=O)N[C@@H](CC(C)C)C(=O)N[C@H](C(=O)NCC(=O)N[C@@H](CCCCNC(=O)COCCOCCNC(=O)COCCOCCNC(=O)CC[C@H](NC(=O)CCCCCCCCCCCCCCCCC(=O)O)C(=O)O)C(N)=O)C(C)C", "assay": "cAMP reporter gene", "system": "CRE-Luc mouse, liver homogenate", "conditions": "subcutaneous, 300 nmol/kg, 6 h", "scale": "baseline: vehicle", "measurement": "luciferase induction", "result": "148 fold"}
{"SMILES": "CN1CCC[C@]1(C)/C=C/S(=O)(=O)NC(=O)Nc1c2c(cc3c1CCC3)CCC2", "system": "human, whole blood ex vivo", "conditions": "100 mg twice daily, day 19, 108 h, multiple ascending dose, with: LPS and ATP", "measurement": "IL-18 inhibition", "result": "16.7%"}
{"SMILES": "O=S(=O)(NCc1ccncc1)c1ccc(C2CCCCC2)cc1", "assay": "immunohistochemistry", "system": "CK-p25 mice female, hippocampus", "conditions": "ip, 0.3 mg/kg daily, 6 wk", "scale": "baseline: vehicle", "measurement": "C1q area reduction", "result": "~15%"}
{"SMILES": "Cc1[nH]nc2c1N=C(c1ccccc1Cl)c1cnc(N3CCOCC3)cc1N2", "system": "mouse sample H TNBC PDX", "conditions": "oral, 15 mg/kg, 120 h, 5 days per week", "measurement": "tumour growth inhibition", "result": "99%"}
{"SMILES": "CCC(=O)N[C@@H](C)C(=O)OCC(=O)N[C@@H](C)C(=O)O", "system": "water", "conditions": "pH 2, 37 °C", "measurement": "side-chain scission rate constant", "result": "0.0009 h⁻¹"}
{"SMILES": "Cc1cccc(C)c1CNc1cc(C(=O)N2CCC2)cn2c(C)c(C)nc12", "assay": "basal gastric acid secretion", "system": "pylorus-ligated rat", "conditions": "oral, 2 mg/kg", "measurement": "inhibition", "result": "91%"}
{"SMILES": "COCCOCCOCCNC(=O)Cc1cc(CC(=O)N[C@H]2C[C@H]3C(=O)Nc4cc(OCCOCCOCCOC)cc(n4)C(=O)N4CCC[C@H]4C(=O)Nc4cc(OCCOCCOCCOC)cc(n4)C(=O)N4CCC[C@H]4C(=O)Nc4cc(OCCOCCOCCOC)cc(n4)C(=O)N3C2)cc(CC(=O)N[C@H]2C[C@H]3C(=O)Nc4cc(OCCOCCOCCOC)cc(n4)C(=O)N4CCC[C@H]4C(=O)Nc4cc(OCCOCCOCCOC)cc(n4)C(=O)N4CCC[C@H]4C(=O)Nc4cc(OCCOCCOCCOC)cc(n4)C(=O)N3C2)c1", "assay": "anion binding, ITC", "system": "water/methanol, 70 % by volume", "conditions": "with: selenate", "measurement": "TΔS", "result": "14.6 kJ/mol"}
{"SMILES": "COc1cc(O)ccc1CCC(c1ccc(O)cc1)c1cc2c(c(C)c1O)OC(c1ccc(O)cc1)CC2 (mixture of isomers)", "system": "human blood", "conditions": "1 µM, with: A23187", "measurement": "15-HETE level", "result": "191 ± 44 pg/mL"}
{"SMILES": "O=C(O)c1ccc(Nc2c(-c3ccc(CON=Cc4cccn4-c4nccc(-c5cccs5)n4)cc3)nc3cc(-c4ccccc4)ccn23)cc1 (mixture of isomers)", "tested on": "TDP1", "assay": "enzyme activity, inhibitor", "conditions": "100 µM, unpurified compound", "measurement": "inhibition", "result": "75.6%"}
{"SMILES": "COc1ccc(NC(=O)c2ccc3[nH]c(-c4ccc(N(C)C)cc4)nc3c2)cn1", "system": "CT26, BALB/c nude mice, subcutaneous graft", "conditions": "dose not given, day 9", "measurement": "tumour volume", "result": "1260 mm3 and 988 mm3 and 1640 mm3 and 1960 mm3"}
{"SMILES": "CC[C@H](C)[C@@H](C(=O)N[C@@H](CC(C)C)C(=O)N[C@@H](CO)C(=O)N[C@@H](CO)C(=O)N[C@H](C(=O)N[C@@H](CCC(=O)O)C(=O)N[C@H](C(=O)NCC(=O)N[C@@H](CO)C(=O)N[C@@H](CO)C(=O)N[C@H](C(=O)N1C[C@H](O)C[C@H]1C(N)=O)[C@@H](C)O)C(C)C)[C@@H](C)O)N(C)C(=O)[C@H](C)NC(=O)CN(C)C(=O)[C@H](Cc1ccccc1)NC(=O)[C@H](CO)NC(=O)[C@H](CO)NC(=O)[C@H](CCCNC(=N)N)NC(=O)[C@H](CCC(N)=O)NC(=O)[C@H](CC(C)C)NC(=O)[C@H](Cc1ccccc1)NC(=O)[C@H](Cc1c[nH]cn1)NC(=O)[C@H](C)NC(=O)[C@H](CC(C)C)NC(=O)[C@H](CCCNC(=N)N)NC(=O)[C@H](CCC(=O)O)NC(=O)[C@@H](NC(=O)[C@H](C)NC(=O)[C@@H]1CSSC[C@H](NC(=O)[C@H](CCCNC(=N)N)NC(=O)CC[C@H](NC(=O)CCCCCCCCCCCCCCCCCCC(=O)O)C(=O)O)C(=O)NCC(=O)N[C@@H]([C@@H](C)O)C(=O)N[C@@H](C)C(=O)N[C@@H]([C@@H](C)O)C(=O)N1)[C@@H](C)O", "system": "male Sprague-Dawley rats", "conditions": "subcutaneous, 30 nmol/kg single dose, 24 h", "scale": "baseline: vehicle", "measurement": "food intake", "result": "74.5 ± 2.4%"}
{"SMILES": "CCCCCc1ccc(S(=O)(=O)N2CC2C(=O)OC)cc1 (stereo not drawn)", "system": "mouse, Lewis lung carcinoma", "conditions": "intraperitoneal, 5 mg/kg, 16 doses, day 12", "measurement": "tumour volume", "result": "281 mm3"}
{"SMILES": "COc1ccc(C(=O)CCc2cc(C(CCc3ccc(O)cc3OC)c3ccc(O)cc3)c(O)cc2OC)cc1 (racemic)", "system": "human blood", "conditions": "3 µM, with: A23187", "measurement": "15-HETE level", "result": "358 ± 134 pg/mL"}
{"SMILES": "COc1ccccc1C1CC(Nc2ccc(-c3ccc(NC4=NOC(c5ccccc5OC)C4)cc3)cc2)=NO1 (stereo not drawn)", "assay": "carrageenan paw oedema", "system": "albino rat", "conditions": "oral, 50 mg/kg, 3 h", "scale": "baseline: vehicle", "measurement": "inhibition", "result": "39.4%"}
{"SMILES": "CC(C)=CCc1cc(C(=O)/C=C/c2ccc(O)cc2)c(O)cc1O", "assay": "phase I metabolism", "system": "rat liver microsomes", "measurement": "Vmax", "result": "229 ± 28.3 pmol/min/mg"}
{"SMILES": "COc1cc(C=CC(=O)Nc2ccc(-c3ccc(NC(=O)C=Cc4ccc(O)c(OC)c4)cc3)cc2)ccc1O", "assay": "carrageenan paw oedema", "system": "albino rat", "conditions": "oral, 50 mg/kg, 3 h", "measurement": "inhibition", "result": "27.2%"}
{"SMILES": "Cc1c(C=NOCc2ccc(-c3nc4cc(-c5ccccc5)ccn4c3Nc3ccc(C(=O)O)cc3)cc2)c2ccccn2c1CCC#N (mixture of isomers)", "tested on": "TDP1", "assay": "enzyme activity, inhibitor", "conditions": "100 µM, unpurified compound", "measurement": "inhibition", "result": "69.4%"}
{"SMILES": "NC[C@@H](C(=O)Nc1ccc(-c2cn[nH]c2)cc1)c1ccccc1", "assay": "tonometry", "system": "Macaca cyclopis, ocular normotensive", "conditions": "ocular, 0.03%, 8 h", "measurement": "IOP", "result": "17.8 mmHg"}
